Measurements gathered from unrelated publications.
Lines come from different studies, so protocols differ. ± marks the error that the study gave.
Trypsin: Trypsin (Sus scrofa, UniProt P00761)
Chain of UniProt P00761 (whole entry, looked up): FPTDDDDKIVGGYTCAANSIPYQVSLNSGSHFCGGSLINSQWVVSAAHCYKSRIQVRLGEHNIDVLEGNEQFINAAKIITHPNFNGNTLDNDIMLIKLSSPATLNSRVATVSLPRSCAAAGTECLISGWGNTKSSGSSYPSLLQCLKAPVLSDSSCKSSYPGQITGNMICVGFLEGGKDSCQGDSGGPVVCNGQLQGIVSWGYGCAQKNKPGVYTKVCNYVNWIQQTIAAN
CYP3A7: Cytochrome P450 3A7 (CYP3A7, Homo sapiens, UniProt P24462)
Chain of UniProt P24462 (whole entry, looked up): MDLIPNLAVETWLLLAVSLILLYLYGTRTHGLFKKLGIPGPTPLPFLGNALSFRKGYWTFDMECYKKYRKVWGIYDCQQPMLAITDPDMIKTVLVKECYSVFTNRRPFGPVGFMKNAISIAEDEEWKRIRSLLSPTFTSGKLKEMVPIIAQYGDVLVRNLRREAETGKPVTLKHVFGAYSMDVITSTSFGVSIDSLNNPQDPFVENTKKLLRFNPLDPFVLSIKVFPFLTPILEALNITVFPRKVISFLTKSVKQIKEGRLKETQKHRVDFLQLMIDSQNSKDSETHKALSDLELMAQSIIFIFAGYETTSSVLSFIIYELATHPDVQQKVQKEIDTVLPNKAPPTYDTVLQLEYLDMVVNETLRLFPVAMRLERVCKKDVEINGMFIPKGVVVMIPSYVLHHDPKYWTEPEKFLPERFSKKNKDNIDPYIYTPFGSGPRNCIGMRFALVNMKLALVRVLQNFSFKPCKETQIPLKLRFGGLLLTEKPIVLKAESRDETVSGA
UGT1A4: UDP-glucuronosyltransferase 1A4 (UGT1A4, Homo sapiens, UniProt P22310)
Chain of UniProt P22310 (whole entry, looked up): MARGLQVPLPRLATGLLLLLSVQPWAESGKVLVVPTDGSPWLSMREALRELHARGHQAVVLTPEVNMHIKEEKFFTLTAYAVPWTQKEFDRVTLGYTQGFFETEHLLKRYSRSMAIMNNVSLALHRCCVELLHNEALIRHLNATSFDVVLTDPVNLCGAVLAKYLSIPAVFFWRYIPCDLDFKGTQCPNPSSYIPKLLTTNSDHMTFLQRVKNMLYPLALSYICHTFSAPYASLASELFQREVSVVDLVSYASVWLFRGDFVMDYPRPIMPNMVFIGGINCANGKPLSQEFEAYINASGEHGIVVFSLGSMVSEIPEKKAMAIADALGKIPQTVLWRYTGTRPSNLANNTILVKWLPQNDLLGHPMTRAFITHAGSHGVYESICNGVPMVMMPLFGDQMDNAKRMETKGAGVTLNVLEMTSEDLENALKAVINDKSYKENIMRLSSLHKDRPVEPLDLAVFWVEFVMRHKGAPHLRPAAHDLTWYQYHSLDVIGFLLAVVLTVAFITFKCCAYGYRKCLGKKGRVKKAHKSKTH
Chain of UniProt Q12809 (whole entry, looked up): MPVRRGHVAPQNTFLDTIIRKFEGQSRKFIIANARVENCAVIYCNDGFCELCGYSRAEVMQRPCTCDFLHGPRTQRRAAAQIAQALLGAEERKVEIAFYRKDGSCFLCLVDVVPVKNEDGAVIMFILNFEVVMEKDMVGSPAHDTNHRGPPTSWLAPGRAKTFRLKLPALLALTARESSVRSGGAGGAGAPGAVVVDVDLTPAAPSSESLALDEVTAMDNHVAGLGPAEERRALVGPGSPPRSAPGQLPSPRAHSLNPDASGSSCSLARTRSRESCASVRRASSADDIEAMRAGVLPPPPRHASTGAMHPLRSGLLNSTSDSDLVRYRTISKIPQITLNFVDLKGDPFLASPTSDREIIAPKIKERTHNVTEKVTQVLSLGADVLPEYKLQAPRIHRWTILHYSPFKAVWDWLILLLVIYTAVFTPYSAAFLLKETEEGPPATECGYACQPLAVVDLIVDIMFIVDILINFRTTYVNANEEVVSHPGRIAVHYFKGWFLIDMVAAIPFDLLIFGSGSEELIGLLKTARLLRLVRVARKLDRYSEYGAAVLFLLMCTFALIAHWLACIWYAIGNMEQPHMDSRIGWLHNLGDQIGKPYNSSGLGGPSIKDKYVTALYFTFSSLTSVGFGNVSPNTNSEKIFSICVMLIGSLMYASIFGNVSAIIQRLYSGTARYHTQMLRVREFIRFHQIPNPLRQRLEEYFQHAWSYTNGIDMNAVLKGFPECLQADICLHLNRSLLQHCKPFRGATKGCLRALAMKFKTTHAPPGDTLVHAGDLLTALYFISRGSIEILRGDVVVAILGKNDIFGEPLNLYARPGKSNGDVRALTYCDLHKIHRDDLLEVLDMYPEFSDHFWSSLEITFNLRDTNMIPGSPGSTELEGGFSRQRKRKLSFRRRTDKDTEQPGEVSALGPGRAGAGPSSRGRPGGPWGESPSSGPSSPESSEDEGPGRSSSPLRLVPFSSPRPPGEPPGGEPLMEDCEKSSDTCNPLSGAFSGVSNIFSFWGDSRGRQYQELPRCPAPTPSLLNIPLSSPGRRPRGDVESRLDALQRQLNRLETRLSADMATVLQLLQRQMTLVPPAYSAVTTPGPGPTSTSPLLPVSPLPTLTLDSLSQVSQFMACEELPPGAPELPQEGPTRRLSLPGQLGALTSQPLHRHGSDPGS
Chain of UniProt P08684 (whole entry, looked up): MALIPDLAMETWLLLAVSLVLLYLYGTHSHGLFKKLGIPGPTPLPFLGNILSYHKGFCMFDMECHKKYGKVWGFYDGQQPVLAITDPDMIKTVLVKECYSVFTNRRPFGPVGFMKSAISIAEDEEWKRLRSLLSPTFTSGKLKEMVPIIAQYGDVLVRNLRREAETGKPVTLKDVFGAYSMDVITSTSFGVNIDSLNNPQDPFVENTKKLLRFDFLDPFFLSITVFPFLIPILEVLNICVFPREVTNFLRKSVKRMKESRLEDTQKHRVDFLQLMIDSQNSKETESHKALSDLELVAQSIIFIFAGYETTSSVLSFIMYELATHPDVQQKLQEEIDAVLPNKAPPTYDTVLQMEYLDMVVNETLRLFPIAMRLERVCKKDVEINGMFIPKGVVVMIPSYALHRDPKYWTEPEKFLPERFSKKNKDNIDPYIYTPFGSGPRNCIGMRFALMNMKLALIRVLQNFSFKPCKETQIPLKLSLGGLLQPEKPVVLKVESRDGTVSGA
Chain of UniProt Q96JM7 (whole entry, looked up): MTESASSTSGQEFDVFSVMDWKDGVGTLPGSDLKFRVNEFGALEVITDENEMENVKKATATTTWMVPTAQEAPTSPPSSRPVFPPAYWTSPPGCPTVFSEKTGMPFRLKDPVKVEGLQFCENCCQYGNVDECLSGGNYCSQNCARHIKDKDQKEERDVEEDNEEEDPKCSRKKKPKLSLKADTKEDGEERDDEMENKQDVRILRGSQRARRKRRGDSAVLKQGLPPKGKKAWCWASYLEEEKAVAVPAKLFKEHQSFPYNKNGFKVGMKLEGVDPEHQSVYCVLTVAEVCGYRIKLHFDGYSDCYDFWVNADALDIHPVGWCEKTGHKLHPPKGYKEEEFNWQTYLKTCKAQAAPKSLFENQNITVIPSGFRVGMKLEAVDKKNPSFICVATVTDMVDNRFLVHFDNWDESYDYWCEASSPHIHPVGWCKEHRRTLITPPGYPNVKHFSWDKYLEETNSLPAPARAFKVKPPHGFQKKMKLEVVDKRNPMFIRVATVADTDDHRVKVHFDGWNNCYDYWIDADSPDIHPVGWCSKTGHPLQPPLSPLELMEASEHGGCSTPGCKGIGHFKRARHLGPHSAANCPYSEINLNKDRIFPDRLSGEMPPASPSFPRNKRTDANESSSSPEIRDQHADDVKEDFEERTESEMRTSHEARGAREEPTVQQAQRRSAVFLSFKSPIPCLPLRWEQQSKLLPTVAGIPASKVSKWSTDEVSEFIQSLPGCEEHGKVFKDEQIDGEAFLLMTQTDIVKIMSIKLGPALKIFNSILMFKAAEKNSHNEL
Chain of UniProt P08183 (whole entry, looked up): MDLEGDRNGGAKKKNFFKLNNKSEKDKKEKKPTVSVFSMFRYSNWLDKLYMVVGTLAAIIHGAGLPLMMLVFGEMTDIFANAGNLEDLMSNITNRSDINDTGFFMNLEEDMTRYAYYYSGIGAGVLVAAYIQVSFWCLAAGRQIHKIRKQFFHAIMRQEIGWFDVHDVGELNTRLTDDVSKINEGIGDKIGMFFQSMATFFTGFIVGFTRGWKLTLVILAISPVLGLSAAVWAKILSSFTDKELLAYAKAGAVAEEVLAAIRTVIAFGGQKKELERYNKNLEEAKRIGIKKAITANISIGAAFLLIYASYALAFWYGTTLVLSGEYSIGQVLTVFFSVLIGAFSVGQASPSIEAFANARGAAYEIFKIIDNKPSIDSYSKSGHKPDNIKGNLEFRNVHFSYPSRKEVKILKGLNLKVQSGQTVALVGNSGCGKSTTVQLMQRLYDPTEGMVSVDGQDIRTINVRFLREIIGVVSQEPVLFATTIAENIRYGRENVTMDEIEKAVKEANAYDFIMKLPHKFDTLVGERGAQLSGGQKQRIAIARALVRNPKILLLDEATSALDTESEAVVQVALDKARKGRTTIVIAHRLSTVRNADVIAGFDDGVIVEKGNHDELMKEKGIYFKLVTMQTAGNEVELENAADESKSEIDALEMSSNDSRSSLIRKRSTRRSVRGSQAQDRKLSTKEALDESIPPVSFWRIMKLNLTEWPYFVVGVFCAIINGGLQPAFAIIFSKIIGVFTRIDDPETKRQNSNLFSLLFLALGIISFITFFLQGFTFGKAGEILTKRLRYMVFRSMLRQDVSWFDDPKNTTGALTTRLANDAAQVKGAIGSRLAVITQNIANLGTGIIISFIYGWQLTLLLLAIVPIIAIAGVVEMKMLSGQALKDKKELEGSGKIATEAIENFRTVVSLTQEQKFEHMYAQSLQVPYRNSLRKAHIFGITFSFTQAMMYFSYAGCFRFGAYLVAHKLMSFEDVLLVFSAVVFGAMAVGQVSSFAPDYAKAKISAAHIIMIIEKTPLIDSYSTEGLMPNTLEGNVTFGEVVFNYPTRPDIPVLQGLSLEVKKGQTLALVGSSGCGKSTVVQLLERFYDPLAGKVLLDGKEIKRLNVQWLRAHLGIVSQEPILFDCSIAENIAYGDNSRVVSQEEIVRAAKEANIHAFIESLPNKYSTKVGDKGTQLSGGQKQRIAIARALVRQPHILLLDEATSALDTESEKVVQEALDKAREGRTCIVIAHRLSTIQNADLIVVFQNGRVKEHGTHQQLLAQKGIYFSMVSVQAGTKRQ

C=CC(=O)N1C[C@H](Nc2ncnc3[nH]ccc23)CC[C@@H]1C
apparent volume Vz/F (CYP3A; substrate; human, plasma; oral, single dose, together with: itraconazole multiple doses): 164 L

CCN(CC)Cc1cc(Nc2ccnc3cc(Cl)ccc23)ccc1O
metabolic activity (COS-7; WST-8; 100 µM, 24 h, 0.1% DMSO, unit not given; reference: control): 0.78 ± 0.23

CC[C@H](C)[C@H](NC(=O)[C@H](CO)NC(=O)[C@H](Cc1ccc(O)cc1)NC(=O)[C@H](CC(=O)O)NC(=O)[C@H](CO)NC(=O)[C@@H](NC(=O)[C@H](Cc1ccccc1)NC(=O)[C@@H](NC(=O)CNC(=O)[C@H](CCC(=O)O)NC(=O)[C@H](C)NC(=O)[C@H](Cc1ccc(O)cc1)NCC(F)(F)F)[C@@H](C)O)[C@@H](C)CC)C(=O)N[C@@H](C)C(=O)N[C@@H](CCSC)C(=O)N[C@@H](CC(=O)O)C(=O)N[C@@H](CCCCN)C(=O)N[C@H](C(=O)N[C@@H](Cc1c[nH]cn1)C(=O)N[C@@H](CCC(N)=O)C(=O)N[C@@H](CCCCNC(=O)COCCOCCNC(=O)COCCOCCNC(=O)CC[C@H](NC(=O)CCCCCCCCCCCCCCCCC(=O)O)C(=O)O)C(=O)N[C@@H](CC(=O)O)C(=O)N[C@@H](Cc1ccccc1)C(=O)N[C@H](C(=O)N[C@@H](CC(N)=O)C(=O)N[C@@H](Cc1c[nH]c2ccccc12)C(=O)N[C@@H](CC(C)C)C(=O)N[C@@H](CC(C)C)C(=O)N[C@@H](C)C(=O)N[C@@H](CCC(N)=O)C(=O)N[C@@H](CCCCN)C(=O)NCC(=O)N[C@@H](CCCCN)C(=O)N[C@@H](CCCCN)C(=O)N[C@@H](CC(N)=O)C(=O)N[C@@H](CC(=O)O)C(=O)N[C@@H](Cc1c[nH]c2ccccc12)C(=O)N[C@@H](CCCCN)C(=O)N[C@@H](Cc1c[nH]cn1)C(=O)N[C@@H](CC(N)=O)C(=O)N[C@H](C(=O)N[C@H](C(=O)N[C@@H](CCC(N)=O)C(=O)O)[C@@H](C)O)[C@@H](C)CC)C(C)C)[C@@H](C)CC
fragment formed (Trypsin; LC-MS, measured: fragment 1-30; 18 h, pH 8.0, 37 °C, together with: trypsin 2.5 mg/mL): 4%

CN1C[C@@H]2C[C@H]1CN2c1cc2c(cc1F)c(=O)c(C(=O)O)cn2C1CC1
percent transported (ABCG2 (sheep); basolateral-to-apical transport, transepithelial transport; MDCK-II transduced with ovine ABCG2, HBSS with HEPES; 10 µM, 4 h): 54.7 ± 5.54%

COC(=O)c1cn(C)c2ccc(-c3cccnc3)cc12
apoptotic cells (COS-7; 30 µM, 24 h, 0.1% DMSO, unit not given; reference: vehicle control): 1.16 ± 0.46

COc1ccc2c(O[C@@H]3C[C@H]4C(=O)N[C@]5(C(=O)NS(=O)(=O)C6CC6)C[C@H]5/C=C\CCCCN(C)C(=O)[C@@H]4C3)cc(-c3nc(C(C)C)cs3)nc2c1C
remaining activity (CYP3A7; fluorescence; recombinant bactosomes; 20 µM, 10 min, pH 7.4, together with: dibenzylfluorescein at Km; reference: solvent control): ~35%

CC(C)C[C@H](NC(=O)CNC(=O)[C@H](C)NC(=O)[C@H](CC(C)C)NC(=O)[C@H](CC(N)=O)NC(=O)[C@H](Cc1c[nH]c2ccccc12)NC(=O)[C@@H](NC(=O)[C@H](Cc1ccc(O)cc1)NC(=O)[C@H](Cc1ccc(O)cc1)NC(=O)[C@H](CO)NC(=O)[C@H](CCCNC(=N)N)NC(=O)[C@H](Cc1c[nH]cn1)NC(=O)[C@@H](N)Cc1c[nH]c2ccccc12)[C@@H](C)O)C(=O)N[C@H](C(=O)NCC(=O)N[C@@H](CCCCN)C(=O)O)C(C)C
cleavage efficiency (MMP-2 human recombinant; 48 h, pH 7.5, 37 °C, together with: MMP-2 5 ng/µL): 95.2%

Cc1oc2ccccc2c1Cc1cc(I)c(OCC(=O)O)c(I)c1
activation rate acceleration (Voltage-gated inwardly rectifying potassium channel KCNH2 (KCNH2, Homo sapiens, UniProt Q12809); potassium current, whole-cell patch clamp; HEK293 expressing hERG1; 10 µM, envelope-of-tails at -20 mV, 10 mM K+; reference: control): 3.8 fold

O=C(c1ccc(C(=O)N2CCC(N3CCCC3)CC2)c(Nc2ccccc2)c1)N1CCC(N2CCCC2)CC1
FRAP recovery half-time (Lethal(3)malignant brain tumor-like protein 3, MBT domains (Homo sapiens, UniProt Q96JM7); FRAP; human cells; 0.5 µM): 3.4 s

O=C(O)COc1cccc(-c2nc(Nc3ccc4[nH]ncc4c3)c3ccccc3n2)c1
IC50 (UGT1A4; enzyme activity, inhibitor; together with: diclofenac): 46.6 µM

Cc1cnc(C(=O)N[C@H]2CCCCC/C=C\[C@@H]3C[C@@]3(C(=O)NS(=O)(=O)C3CC3)NC(=O)[C@@H]3C[C@@H](Oc4nc5ccccc5c5ccccc45)CN3C2=O)cn1
remaining activity (CYP3A7; fluorescence; recombinant bactosomes; 20 µM, 10 min, pH 7.4, together with: dibenzylfluorescein at Km; reference: solvent control): ~25%

CN(C)CCCN1c2ccccc2CCc2ccccc21
inhibition (UGT1A4; glucuronidation, inhibitor, LC-MS; recombinant human supersomes; concentration not given, 180 min, pH 7.4, together with: UGT1A4-specific substrate 50 µM; reference: DMSO): ~20%

CCCCC1=NC2(CCCC2)C(=O)N1Cc1ccc(-c2ccccc2S(=O)(=O)Nc2noc(C)c2C)c(COCC)c1
EC50 (CYP2C9; enzyme induction, inducer; human): 2.25 µM

CC[C@H](C)[C@H](NC(=O)[C@H](CO)NC(=O)[C@H](Cc1ccc(O)cc1)NC(=O)[C@H](CC(=O)O)NC(=O)[C@H](CO)NC(=O)[C@@H](NC(=O)[C@H](Cc1ccccc1)NC(=O)[C@@H](NC(=O)CNC(=O)[C@H](CCC(=O)O)NC(=O)[C@H](C)NC(=O)[C@@H](N)Cc1ccc(O)cc1)[C@@H](C)O)[C@@H](C)CC)C(=O)N[C@@H](C)C(=O)N[C@@H](CCSC)C(=O)N[C@@H](CC(=O)O)C(=O)N[C@@H](CCCCN)C(=O)N[C@H](C(=O)N[C@@H](Cc1c[nH]cn1)C(=O)N[C@@H](CCC(N)=O)C(=O)N[C@@H](CCC(N)=O)C(=O)N[C@@H](CC(=O)O)C(=O)N[C@@H](Cc1ccccc1)C(=O)N[C@H](C(=O)N[C@@H](CC(N)=O)C(=O)N[C@@H](Cc1c[nH]c2ccccc12)C(=O)N[C@@H](CC(C)C)C(=O)N[C@@H](CC(C)C)C(=O)N[C@@H](C)C(=O)N[C@@H](CCC(N)=O)C(=O)N[C@@H](CCCCN)C(=O)NCC(=O)N[C@@H](CCCCN)C(=O)N[C@@H](CCCCN)C(=O)N[C@@H](CC(N)=O)C(=O)N[C@@H](CC(=O)O)C(=O)N[C@@H](Cc1c[nH]c2ccccc12)C(=O)N[C@@H](CCCCN)C(=O)N[C@@H](Cc1c[nH]cn1)C(=O)N[C@@H](CC(N)=O)C(=O)N[C@H](C(=O)N[C@H](C(=O)N[C@@H](CCC(N)=O)C(=O)O)[C@@H](C)O)[C@@H](C)CC)C(C)C)[C@@H](C)CC
fragment formed (Trypsin; LC-MS, measured: fragment 1-32; 18 h, pH 8.0, 37 °C, together with: trypsin 2.5 mg/mL): 36%

CC1(C)CCC2(CC1)N[C@@H](C(=O)N[C@@H]1CC[C@@H](C(N)=O)OC1)[C@H](c1ccnc(Cl)c1F)[C@]21C(=O)Nc2cc(Cl)ccc21
Papp A to B (ATP-dependent translocase ABCB1 (ABCB1, Homo sapiens, UniProt P08183); Caco-2 monolayers; 100 µM, 120 min, no inhibitor): 4.42 ×10⁻⁶ cm/s

COc1c(O)c(C)cc2c1C(=O)c1c(O)cccc1C2=O
cell viability (HepaRG co-cultured with HK-2; MTT; 33.33 µM, 24 h; reference: untreated control): 91 ± 13.7%

CC[C@H]1[C@@H](O)[C@@H]2[C@H](CC[C@]3(C)[C@@H]([C@H](C)CCNC(=O)NS(=O)(=O)c4ccc(C(C)(C)C)cc4)CC[C@@H]23)[C@@]2(C)CC[C@@H](O)C[C@@H]12
CL/F (Cytochrome P450 3A4 (CYP3A4, Homo sapiens, UniProt P08684); human, plasma; geometric mean, together with: fluconazole): 3.25 L/h

COc1ccc(Cl)cc1C(=O)NCCc1ccc(S(=O)(=O)NC(=O)NC2CCCCC2)cc1
efflux ratio (P-gp and Bcrp; Sprague-Dawley rats, brain; intravenous infusion, 0.05 mg/kg/h, 4 h, together with: elacridar 0.009 mg/kg/h; reference: Kp without over with elacridar): 1.4

Repeated from above:
CN(C)CCCN1c2ccccc2CCc2ccccc21
inhibition (UGT1A4; glucuronidation, inhibitor, LC-MS; recombinant human supersomes; concentration not given, 180 min, pH 7.4, together with: UGT1A4-specific substrate 50 µM; reference: DMSO): ~20%
